Assay results collected from several papers.
Each numbered part is a random draw from the data of one study; scales do not carry over between parts.
UniProt Q9NWZ3, sequence (whole entry, looked up): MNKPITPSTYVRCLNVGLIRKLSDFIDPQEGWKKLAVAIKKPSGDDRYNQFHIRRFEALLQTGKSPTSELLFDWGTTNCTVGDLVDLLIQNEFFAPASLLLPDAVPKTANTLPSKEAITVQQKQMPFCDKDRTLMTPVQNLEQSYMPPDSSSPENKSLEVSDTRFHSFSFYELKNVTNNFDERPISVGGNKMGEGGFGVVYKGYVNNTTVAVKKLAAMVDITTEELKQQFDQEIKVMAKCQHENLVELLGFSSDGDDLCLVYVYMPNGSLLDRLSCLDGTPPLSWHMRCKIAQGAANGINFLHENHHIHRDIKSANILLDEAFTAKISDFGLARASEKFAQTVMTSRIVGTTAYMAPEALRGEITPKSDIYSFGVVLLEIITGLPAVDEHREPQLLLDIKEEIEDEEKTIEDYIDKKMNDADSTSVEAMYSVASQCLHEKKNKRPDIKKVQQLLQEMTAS
UniProt Q9Y2K2, sequence (whole entry, looked up): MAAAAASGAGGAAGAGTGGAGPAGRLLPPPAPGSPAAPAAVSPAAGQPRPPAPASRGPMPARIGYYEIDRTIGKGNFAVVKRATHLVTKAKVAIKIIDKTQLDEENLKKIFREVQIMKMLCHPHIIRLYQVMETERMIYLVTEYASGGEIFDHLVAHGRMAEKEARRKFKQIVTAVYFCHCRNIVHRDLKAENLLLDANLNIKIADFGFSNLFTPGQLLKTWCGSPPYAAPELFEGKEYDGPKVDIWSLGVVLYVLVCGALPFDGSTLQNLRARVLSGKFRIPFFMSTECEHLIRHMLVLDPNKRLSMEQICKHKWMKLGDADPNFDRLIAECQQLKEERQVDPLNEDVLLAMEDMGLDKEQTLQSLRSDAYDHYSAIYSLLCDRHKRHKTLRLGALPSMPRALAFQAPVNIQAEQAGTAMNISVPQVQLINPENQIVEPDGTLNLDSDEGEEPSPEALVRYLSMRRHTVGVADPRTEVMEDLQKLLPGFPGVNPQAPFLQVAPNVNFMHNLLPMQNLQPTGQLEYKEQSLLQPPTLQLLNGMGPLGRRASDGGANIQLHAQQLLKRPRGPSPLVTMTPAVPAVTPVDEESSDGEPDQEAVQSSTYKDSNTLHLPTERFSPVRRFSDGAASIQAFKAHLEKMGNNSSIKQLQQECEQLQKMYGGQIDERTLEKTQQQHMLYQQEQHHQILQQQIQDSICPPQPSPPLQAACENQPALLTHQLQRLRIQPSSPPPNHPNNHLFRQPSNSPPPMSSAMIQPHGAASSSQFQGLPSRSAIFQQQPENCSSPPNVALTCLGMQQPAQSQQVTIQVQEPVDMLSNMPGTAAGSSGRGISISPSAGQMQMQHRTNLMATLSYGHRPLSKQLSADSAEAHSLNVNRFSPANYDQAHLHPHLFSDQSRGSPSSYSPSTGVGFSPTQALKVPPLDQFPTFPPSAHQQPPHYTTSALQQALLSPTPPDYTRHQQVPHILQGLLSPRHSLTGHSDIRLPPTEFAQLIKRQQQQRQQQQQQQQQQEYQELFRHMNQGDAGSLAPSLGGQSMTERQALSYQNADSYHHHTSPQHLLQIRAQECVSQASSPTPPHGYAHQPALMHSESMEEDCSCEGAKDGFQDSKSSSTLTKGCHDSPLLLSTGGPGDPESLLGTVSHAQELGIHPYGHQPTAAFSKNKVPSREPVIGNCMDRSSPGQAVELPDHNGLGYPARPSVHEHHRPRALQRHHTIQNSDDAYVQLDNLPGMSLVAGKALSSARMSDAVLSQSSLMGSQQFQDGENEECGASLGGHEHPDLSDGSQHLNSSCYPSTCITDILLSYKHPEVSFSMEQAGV
UniProt Q13164, sequence (whole entry, looked up): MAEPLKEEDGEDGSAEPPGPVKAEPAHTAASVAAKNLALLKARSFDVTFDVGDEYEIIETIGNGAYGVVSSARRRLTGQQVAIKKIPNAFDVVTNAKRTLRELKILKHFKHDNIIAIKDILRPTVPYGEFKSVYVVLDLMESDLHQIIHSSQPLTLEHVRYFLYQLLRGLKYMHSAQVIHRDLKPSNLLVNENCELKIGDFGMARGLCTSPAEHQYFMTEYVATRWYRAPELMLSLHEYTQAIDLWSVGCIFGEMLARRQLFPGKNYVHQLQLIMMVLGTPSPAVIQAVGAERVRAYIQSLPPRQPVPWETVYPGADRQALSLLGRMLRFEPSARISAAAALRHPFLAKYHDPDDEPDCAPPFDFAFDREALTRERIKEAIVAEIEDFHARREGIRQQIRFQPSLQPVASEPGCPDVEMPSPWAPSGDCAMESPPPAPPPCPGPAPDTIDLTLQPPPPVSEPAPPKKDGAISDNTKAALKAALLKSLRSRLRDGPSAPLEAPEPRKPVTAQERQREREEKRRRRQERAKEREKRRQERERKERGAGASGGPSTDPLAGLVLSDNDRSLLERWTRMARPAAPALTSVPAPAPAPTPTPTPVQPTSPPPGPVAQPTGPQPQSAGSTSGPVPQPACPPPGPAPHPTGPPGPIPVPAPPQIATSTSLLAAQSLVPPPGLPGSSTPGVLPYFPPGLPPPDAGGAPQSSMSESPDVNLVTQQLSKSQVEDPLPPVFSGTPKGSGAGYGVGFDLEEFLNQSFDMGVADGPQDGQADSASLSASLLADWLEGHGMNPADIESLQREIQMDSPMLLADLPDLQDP
UniProt Q8IY84, sequence (whole entry, looked up): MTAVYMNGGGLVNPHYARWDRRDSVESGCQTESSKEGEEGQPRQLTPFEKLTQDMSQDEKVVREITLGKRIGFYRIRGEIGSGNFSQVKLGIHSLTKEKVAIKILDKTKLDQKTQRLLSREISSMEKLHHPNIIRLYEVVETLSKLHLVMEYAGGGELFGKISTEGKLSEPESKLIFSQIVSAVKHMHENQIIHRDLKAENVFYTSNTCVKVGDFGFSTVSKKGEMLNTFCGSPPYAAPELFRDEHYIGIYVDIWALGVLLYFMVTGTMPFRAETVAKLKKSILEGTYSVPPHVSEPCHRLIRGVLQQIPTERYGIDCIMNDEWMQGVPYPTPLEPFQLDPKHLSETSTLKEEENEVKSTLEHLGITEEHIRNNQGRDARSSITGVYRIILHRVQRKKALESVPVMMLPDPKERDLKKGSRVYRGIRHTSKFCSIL
UniProt Q6PHR2, sequence (whole entry, looked up): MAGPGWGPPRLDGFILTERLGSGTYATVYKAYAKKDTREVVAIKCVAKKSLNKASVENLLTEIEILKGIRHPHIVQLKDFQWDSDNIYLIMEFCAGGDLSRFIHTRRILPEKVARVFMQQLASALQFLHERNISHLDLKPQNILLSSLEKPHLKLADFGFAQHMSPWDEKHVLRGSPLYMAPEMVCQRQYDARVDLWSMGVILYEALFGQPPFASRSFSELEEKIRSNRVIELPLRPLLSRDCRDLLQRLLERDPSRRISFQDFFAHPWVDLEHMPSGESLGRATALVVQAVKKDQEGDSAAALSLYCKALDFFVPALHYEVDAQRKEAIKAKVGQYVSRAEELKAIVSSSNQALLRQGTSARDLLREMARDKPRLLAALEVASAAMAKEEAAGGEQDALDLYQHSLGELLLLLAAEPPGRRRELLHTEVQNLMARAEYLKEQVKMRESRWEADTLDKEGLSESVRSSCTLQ

Series 1
SMILES: O=C(NC[C@@H]1[C@H]2CN(C(=O)OCc3cc(C(F)(F)F)cc(C(F)(F)F)c3)C[C@@H]12)c1ccc2[nH]nnc2c1
Observed: cell-free assay
Technique: competition with immobilised ligand
Concentration: 1 µM
Quantity: remaining binding
SIK3 (Homo sapiens, UniProt Q9Y2K2): 79%
MAPK7 (Homo sapiens, UniProt Q13164): 100%
IRAK4 (Homo sapiens, UniProt Q9NWZ3): 100%
ULK3 (Homo sapiens, UniProt Q6PHR2): 99%
NIM1K (Homo sapiens, UniProt Q8IY84): 100%
MAPK9 (Homo sapiens, UniProt P45984): 100%
MAPK13 (Homo sapiens, UniProt O15264): 100%
EGFR (Homo sapiens, UniProt P00533): 99%

Series 2
Organism: Plasmodium berghei
Action: inhibitor
Cell line: Huh-7
Strain: GFP-expressing, liver stage
Concentration: 10 µM
Time: 24 h
Baseline: untreated control
Quantity: infection rate
c1ccc2c(c1)CCCC2C1=NCCN1 (stereo not shown): 97.7%
CC1(C)O[C@@H]2C[C@H]3[C@@H]4CCC5=CC(=O)C=C[C@]5(C)[C@@]4(F)[C@@H](O)C[C@]3(C)[C@]2(C(=O)CO)O1: 70.8%
Cn1c([N+](=O)[O-])cnc1COC(N)=O: 93.7%
CNC(=C[N+](=O)[O-])NCCSCc1csc(CN(C)C)n1: 90.8%
COc1cc(C(=O)NCc2ccc(OCCN(C)C)cc2)cc(OC)c1OC: 92.5%
CC(C)(Sc1cc(C(C)(C)C)c(O)c(C(C)(C)C)c1)Sc1cc(C(C)(C)C)c(O)c(C(C)(C)C)c1: 81.1%

Series 3
Compound: CC(C)n1cnc(-c2ccc(F)cc2)c1-c1ncc(C(=O)Nc2ccc(N3CCN(C)CC3)cc2)[nH]1
Technique: phase 2a trial
Species: idiopathic pulmonary fibrosis patients
Quantity: adverse event incidence
item: immunoglobulins increased; dose not given, grade 3, all arms pooled: 0%
item: arthritis; 30 mg once daily, grade 5: 0%
item: hepatic enzyme abnormal; 60 mg once daily, grade 3: 0%
item: ventricular extrasystoles; 30 mg once daily, grade 2: 0%

Single results of other studies
COc1ccc(-c2c(Nc3ccccn3)[nH]c3c(C4=CCCCC4)c(-c4ccccc4)nn3c2=O)cc1 — terminal elimination rate constant (LC-MS/MS non-compartmental; human, plasma; oral, 200 mg twice daily, cycle 1): 1.23e-06 s⁻¹

A few entries again (series 1):
MAPK7 (Homo sapiens, UniProt Q13164): 100%
